Published values pooled from the literature.
Compare with care: the assays were run in different laboratories. pIC50: −log10 of the molar value.
Cell line: MOLT-4

CCOc1cncc(-c2ccc(NC(=O)C3(c4ccnc(NS(=O)(=O)C5CC5)n4)CCOCC3)nc2)n1  pIC50 (cell growth or viability, ATP luminescence; 72 h): 7.80
CN(C)CCN1CCN(c2ccc3nc(-c4ccc5nc(-c6ccc(C(F)(F)F)cc6)[nH]c5c4)[nH]c3c2)CC1  growth percent (SRB; 10 µM, 48 h): 44.2%
N#Cc1c(N)nc2c(c1-c1ccccc1)Cc1cc(O)ccc1-2  pIC50 (cell growth or viability, ATP luminescence): 4.97
NC(=O)c1ccc(-c2ccccc2Cl)c2c3c([nH]c12)CCC(N)C3 (stereo not drawn)  pIC50 (cell growth or viability; 96 h): 7.67
CCCC(CCC)C(=O)OCc1cn(-c2cc3ccccc3oc2=O)nn1  growth percentage (NCI60 single-dose screen; 10 µM): 95%
CC[C@H](CO)Nc1nc(NCc2ccc(-c3ccccn3)cc2)c2ncn(C(C)C)c2n1  log2 fold change (tandem mass tag proteomics, refers to: CDK12; 1 µM, 5 h; relative to: DMSO): -1.84
N#Cc1c(N)nc2c(c1-c1ccc(CO)o1)Cc1cc(O)ccc1-2  pIC50 (cell growth or viability, ATP luminescence): 5.70
CC(C)c1ccc(N(C)c2ccc3c(c2)OCC[C@H]3CNc2cnccc2C(=O)O)cc1  pIC50 (cell growth or viability, ATP luminescence; 7 days): 8.90
Cc1ccc(-c2c(C#N)c(N)nc3c2Cc2cc(O)ccc2-3)o1  pIC50 (cell viability, CellTiter-Glo; no inhibition at 100 µM): < 4.00
CN1CCC(N[C@@H]2CCc3[nH]c4c(C(N)=O)ccc(-c5ccccc5Cl)c4c3C2)CC1  pIC50 (cell growth or viability): 7.86
N#Cc1c(N)nc2c(c1-c1ccc(F)cc1)Cc1cc(O)ccc1-2  pIC50 (cell growth or viability, ATP luminescence): 5.23
O=C(Nc1nnc2c1c(-c1ccc(Cl)cc1)nc1sc(=Cc3ccco3)c(=O)n12)c1ccccc1 (mixture of isomers)  cell growth (SRB; 10 µM, NCI60 single-dose screen; relative to: untreated): 32.8%
